{"data": "Measured values collected from several papers", "note": "Each line is one published result; not all experiments were run side by side."}
{"Structure (SMILES)": "COc1cc(C(=O)NC2CCN(C)CC2)c(F)cc1Nc1ncc(C(F)(F)F)c(Oc2cccc3c2C(=O)N(C)C3)n1", "test system": "human patients, plasma", "conditions": "oral, 100 mg single dose, geometric mean", "endpoint": "mean residence time", "result": "29.3 h"}
{"Structure (SMILES)": "CNC(=O)c1cc(Oc2ccc(NC(=O)Nc3cc(C(C)(C)C)nn3-c3ccc4ncccc4c3)c(F)c2)ccn1", "assay": "muscular weakness, NCI CTC v3.0", "test system": "human patients", "conditions": "oral, 1200 mg once daily, dose at onset", "endpoint": "related SAE", "result": "33%"}
{"Structure (SMILES)": "C[C@]1(O)C[C@@](N)(c2ccc(-c3nc4n(c3-c3ccccc3)COc3ccncc3-4)cc2)C1", "test system": "human, advanced or metastatic solid tumours", "conditions": "dose not given, all patients", "endpoint": "patients with grade ≥3 TEAE", "result": "88.2%"}
{"Structure (SMILES)": "O=[N+]([O-])NC1=NCCN1Cc1ccc(Cl)nc1", "test system": "whole cow milk", "conditions": "20 nM nominal", "endpoint": "dose fraction in skim milk", "result": "96.6%"}
{"Structure (SMILES)": "CC(C)n1c(C2CCNCC2)nc2c([N+](=O)[O-])c(Br)c(Br)cc21", "test system": "patients with AML", "conditions": "125 mg", "endpoint": "AE leading to dose reduction", "result": "0%"}
{"Structure (SMILES)": "N#CCNC(=O)c1ccc(-c2ccnc(Nc3ccc(N4CCOCC4)cc3)n2)cc1", "test system": "healthy volunteers", "conditions": "oral, 200 mg, with: midazolam 5 mg", "endpoint": "feeling hot incidence", "result": "0%"}
{"Structure (SMILES)": "COc1cc2c(Oc3ccc4[nH]c(C)cc4c3F)ccnc2cc1OCC1(N)CC1", "test system": "paediatric recurrent refractory sarcoma", "conditions": "10 mg", "endpoint": "grade 1 or 2 Tinnitus", "result": "0%"}
{"Structure (SMILES)": "C=CC(=O)N1CC[C@H](n2nc(C#Cc3cc(OC)cc(OC)c3)c3c(N)ncnc32)C1", "test system": "human patients", "conditions": "oral, dose not given, QD regimen, adverse drug reaction, with: any phosphate binder", "endpoint": "hyperphosphatemia incidence, grade ≥3", "result": "5%"}
{"Structure (SMILES)": "C[C@H]1CN(C(=O)CC#N)[C@]12CCN(c1ncnc3[nH]ccc13)C2", "test system": "rat female", "conditions": "oral, 30 mg/kg repeated daily, 3 months, repeated-dose toxicity study", "endpoint": "Cmax at NOAEL", "result": "5340 ng/mL"}
{"Structure (SMILES)": "CCC[C@H]1CC[C@H](c2ccc(-c3ccc(F)cc3)cc2)CC1", "test system": "human mother-newborn pairs, maternal serum", "endpoint": "mean serum concentration", "result": "0.55 ng/mL"}
{"Structure (SMILES)": "CC(C)(C)c1cc(-n2nc3ccccc3n2)c(O)c(C(C)(C)C)c1", "assay": "exposure assessment", "test system": "human, age 16-21 years", "conditions": "cream", "endpoint": "mean daily dermal uptake", "result": "1.54 ng/kg body weight/day"}
{"Structure (SMILES)": "CC(=O)c1c(C)c2cnc(Nc3ccc(C4CCN(CCS(C)(=O)=O)CC4)cn3)nc2n(C2CCCC2)c1=O", "test system": "HR+/HER2- advanced breast cancer patients", "conditions": "oral, 50 mg", "endpoint": "patients with TEAE grade ≥3", "result": "66.7%"}
{"Structure (SMILES)": "COc1ncnn2ccc(-c3cnc4nc(C)n(Cc5nnc([C@@H](C)F)o5)c4c3)c12", "test system": "human", "conditions": "oral, dose not given, grade 5", "endpoint": "patients with any adverse reaction", "result": "0%"}
{"Structure (SMILES)": "CC(C)(O)c1cc(Nc2cc(Oc3cn(C4CC4)nc3C3CCOCC3)ccn2)ccn1", "assay": "Headache", "test system": "advanced cancer patients, dose escalation", "conditions": "oral, dose not given, 3 weeks on/1 off, all causality grade ≥3", "endpoint": "treatment-emergent adverse events", "result": "9%"}
{"note": "For quick reference, copied from above:"}
{"Structure (SMILES)": "CCC[C@H]1CC[C@H](c2ccc(-c3ccc(F)cc3)cc2)CC1", "test system": "human mother-newborn pairs, maternal serum", "endpoint": "mean serum concentration", "result": "0.55 ng/mL"}
{"Structure (SMILES)": "CC(C)(C)c1cc(-n2nc3ccccc3n2)c(O)c(C(C)(C)C)c1", "assay": "exposure assessment", "test system": "human, age 16-21 years", "conditions": "cream", "endpoint": "mean daily dermal uptake", "result": "1.54 ng/kg body weight/day"}
